{"data": "Results of several laboratories", "note": "Each numbered part is a random draw from the data of one study; scales do not carry over between parts. “And” joins repeats or separate records; there may be more than shown.", "UniProt Q05397, sequence (whole entry, looked up)": "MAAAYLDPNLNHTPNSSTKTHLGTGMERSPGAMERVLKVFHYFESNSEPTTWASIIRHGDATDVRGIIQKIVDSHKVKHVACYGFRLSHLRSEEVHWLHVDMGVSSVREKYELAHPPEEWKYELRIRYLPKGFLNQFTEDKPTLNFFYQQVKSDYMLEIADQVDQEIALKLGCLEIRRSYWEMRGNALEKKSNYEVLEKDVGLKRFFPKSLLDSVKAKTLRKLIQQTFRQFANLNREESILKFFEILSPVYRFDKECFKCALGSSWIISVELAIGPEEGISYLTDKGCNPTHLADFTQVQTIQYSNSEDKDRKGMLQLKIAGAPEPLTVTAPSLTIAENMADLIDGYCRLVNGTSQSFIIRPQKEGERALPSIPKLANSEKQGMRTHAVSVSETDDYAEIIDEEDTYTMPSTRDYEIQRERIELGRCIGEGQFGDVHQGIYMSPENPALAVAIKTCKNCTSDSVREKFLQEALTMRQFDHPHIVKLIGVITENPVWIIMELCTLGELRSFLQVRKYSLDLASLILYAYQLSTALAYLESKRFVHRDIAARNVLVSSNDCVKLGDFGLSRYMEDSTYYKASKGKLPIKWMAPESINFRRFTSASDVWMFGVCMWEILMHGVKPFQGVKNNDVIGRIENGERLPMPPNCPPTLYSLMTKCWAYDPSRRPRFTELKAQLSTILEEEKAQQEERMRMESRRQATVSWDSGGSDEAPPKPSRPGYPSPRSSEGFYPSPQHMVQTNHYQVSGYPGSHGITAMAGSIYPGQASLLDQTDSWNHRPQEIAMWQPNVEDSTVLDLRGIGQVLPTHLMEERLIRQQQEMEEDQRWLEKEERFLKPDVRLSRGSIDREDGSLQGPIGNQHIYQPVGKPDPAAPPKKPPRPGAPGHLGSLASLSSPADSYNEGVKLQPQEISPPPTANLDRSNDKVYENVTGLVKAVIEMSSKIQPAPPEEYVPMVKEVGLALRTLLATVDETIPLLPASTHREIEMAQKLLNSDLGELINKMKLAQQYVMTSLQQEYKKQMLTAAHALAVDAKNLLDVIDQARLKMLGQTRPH", "UniProt P35916, sequence (whole entry, looked up)": "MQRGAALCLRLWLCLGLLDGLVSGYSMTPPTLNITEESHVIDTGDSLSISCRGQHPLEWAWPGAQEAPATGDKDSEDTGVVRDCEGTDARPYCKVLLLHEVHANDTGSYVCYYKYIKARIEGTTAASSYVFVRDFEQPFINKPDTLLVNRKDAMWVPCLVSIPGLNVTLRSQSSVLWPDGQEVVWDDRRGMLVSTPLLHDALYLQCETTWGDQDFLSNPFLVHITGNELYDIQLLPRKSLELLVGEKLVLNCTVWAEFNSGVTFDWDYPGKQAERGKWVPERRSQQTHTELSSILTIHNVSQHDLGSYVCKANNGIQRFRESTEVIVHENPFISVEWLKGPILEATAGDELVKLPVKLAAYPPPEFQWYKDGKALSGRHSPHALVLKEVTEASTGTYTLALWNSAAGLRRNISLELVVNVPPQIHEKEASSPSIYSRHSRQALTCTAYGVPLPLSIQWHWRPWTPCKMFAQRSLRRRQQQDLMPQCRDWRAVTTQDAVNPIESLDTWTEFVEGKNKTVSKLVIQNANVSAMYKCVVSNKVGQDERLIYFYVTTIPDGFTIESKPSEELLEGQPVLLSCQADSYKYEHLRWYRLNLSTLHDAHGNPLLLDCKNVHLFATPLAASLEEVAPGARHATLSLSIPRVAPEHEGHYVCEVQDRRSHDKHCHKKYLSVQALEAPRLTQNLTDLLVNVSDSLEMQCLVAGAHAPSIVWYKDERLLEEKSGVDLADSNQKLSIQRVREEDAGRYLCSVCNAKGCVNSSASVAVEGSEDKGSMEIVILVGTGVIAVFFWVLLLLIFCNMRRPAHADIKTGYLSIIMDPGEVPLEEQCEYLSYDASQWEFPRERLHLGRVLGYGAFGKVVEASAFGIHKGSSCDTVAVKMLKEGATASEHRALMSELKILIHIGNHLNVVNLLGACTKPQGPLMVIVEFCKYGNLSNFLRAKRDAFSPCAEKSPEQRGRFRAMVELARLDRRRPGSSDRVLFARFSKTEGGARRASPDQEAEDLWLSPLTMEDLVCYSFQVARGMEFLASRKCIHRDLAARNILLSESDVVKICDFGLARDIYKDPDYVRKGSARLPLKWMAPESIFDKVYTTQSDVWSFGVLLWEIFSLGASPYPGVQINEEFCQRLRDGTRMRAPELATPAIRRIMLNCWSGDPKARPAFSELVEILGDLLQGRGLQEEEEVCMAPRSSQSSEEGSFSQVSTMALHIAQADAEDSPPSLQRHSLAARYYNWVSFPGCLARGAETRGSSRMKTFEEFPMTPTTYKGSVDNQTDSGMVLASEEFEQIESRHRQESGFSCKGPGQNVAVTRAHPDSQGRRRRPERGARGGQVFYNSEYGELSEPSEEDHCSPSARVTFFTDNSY", "UniProt P53667, sequence (whole entry, looked up)": "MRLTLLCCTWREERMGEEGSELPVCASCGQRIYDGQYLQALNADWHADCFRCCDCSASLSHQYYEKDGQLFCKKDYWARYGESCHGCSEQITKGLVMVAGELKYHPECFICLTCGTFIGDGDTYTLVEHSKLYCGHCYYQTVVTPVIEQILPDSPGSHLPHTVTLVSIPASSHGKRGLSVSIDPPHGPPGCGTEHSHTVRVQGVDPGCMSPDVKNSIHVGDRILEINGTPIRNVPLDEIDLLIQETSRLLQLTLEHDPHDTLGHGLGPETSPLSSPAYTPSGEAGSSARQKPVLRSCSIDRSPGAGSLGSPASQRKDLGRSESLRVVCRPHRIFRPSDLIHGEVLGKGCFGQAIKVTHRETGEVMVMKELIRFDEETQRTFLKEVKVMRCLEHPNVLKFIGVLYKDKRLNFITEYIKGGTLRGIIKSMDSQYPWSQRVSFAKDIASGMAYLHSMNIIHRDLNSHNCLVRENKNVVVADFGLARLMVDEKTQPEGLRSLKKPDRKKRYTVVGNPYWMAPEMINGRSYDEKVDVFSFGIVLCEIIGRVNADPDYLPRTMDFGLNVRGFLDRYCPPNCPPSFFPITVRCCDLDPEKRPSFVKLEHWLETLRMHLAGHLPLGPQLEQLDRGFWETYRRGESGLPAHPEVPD", "UniProt P31749, sequence (whole entry, looked up)": "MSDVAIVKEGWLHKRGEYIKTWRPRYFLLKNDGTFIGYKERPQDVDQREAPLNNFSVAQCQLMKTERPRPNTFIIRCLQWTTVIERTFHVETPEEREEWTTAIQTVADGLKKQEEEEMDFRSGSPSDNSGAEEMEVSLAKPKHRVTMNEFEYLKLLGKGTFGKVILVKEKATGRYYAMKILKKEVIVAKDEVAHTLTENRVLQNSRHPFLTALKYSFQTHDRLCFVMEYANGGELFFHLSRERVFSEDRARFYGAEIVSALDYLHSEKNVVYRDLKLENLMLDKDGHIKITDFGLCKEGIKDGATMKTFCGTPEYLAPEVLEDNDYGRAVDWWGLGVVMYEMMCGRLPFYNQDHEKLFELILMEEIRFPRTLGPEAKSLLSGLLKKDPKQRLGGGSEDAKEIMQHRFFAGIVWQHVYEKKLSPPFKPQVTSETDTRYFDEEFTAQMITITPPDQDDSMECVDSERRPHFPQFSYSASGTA", "UniProt Q9UBE8, sequence (whole entry, looked up)": "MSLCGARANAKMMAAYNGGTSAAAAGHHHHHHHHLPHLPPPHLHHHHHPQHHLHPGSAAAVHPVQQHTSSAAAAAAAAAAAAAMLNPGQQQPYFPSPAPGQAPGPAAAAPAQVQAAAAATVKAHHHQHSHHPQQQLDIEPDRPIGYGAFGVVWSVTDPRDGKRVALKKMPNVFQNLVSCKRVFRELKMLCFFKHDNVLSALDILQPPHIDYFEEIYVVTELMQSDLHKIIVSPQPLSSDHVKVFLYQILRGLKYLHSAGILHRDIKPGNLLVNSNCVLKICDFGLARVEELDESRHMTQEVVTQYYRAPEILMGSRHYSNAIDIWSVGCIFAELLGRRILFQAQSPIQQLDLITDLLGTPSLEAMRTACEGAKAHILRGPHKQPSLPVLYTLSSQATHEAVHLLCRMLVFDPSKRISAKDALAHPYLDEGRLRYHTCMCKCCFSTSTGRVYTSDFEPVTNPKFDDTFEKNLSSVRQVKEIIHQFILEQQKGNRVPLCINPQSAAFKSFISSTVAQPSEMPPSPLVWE", "UniProt Q00526, sequence (whole entry, looked up)": "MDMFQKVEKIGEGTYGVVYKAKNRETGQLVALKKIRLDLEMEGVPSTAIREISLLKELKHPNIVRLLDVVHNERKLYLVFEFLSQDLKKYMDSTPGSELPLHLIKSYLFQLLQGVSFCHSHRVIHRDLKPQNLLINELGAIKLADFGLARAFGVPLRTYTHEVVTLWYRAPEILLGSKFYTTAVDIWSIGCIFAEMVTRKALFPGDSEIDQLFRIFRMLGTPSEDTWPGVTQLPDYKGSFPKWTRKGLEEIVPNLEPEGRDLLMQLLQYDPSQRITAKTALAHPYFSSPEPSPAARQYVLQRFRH"}
{"data": "Set 1", "SMILES": "Cn1cc(/C=C2\\C(=O)Nc3ccc(S(N)(=O)=O)cc32)c2ccccc21", "observed": "enzyme activity", "mode": "inhibitor", "tested at": "0.5 µM", "baseline": "control"}
{"target": "Serine/threonine-protein kinase TAO3 (TAOK3, Homo sapiens, UniProt Q9H2K8)", "remaining activity": "60.2%"}
{"target": "Vascular endothelial growth factor receptor 3 (FLT4, Homo sapiens, UniProt P35916)", "remaining activity": "65.1%"}
{"target": "ALK tyrosine kinase receptor (ALK, Homo sapiens, UniProt Q9UM73)", "remaining activity": "72.1%"}
{"target": "Serine/threonine-protein kinase 25 (STK25, Homo sapiens, UniProt O00506)", "remaining activity": "83.5%"}
{"target": "Serine/threonine-protein kinase Nek11 (NEK11, Homo sapiens, UniProt Q8NG66)", "remaining activity": "96.1%"}
{"target": "Tyrosine-protein kinase Fyn (FYN, Homo sapiens, UniProt P06241)", "remaining activity": "45.7%"}
{"target": "Serine/threonine-protein kinase MRCK alpha (CDC42BPA, Homo sapiens, UniProt Q5VT25)", "remaining activity": "70.7%"}
{"target": "Cyclin-dependent kinase 3, with cyclin E (CDK3, Homo sapiens, UniProt Q00526)", "remaining activity": "90.3%"}
{"target": "Homeodomain-interacting protein kinase 1 (HIPK1, Homo sapiens, UniProt Q86Z02)", "remaining activity": "97.2%"}
{"target": "PAS domain-containing serine/threonine-protein kinase (PASK, Homo sapiens, UniProt Q96RG2)", "remaining activity": "84.8%"}
{"target": "Serine/threonine-protein kinase N1 (PKN1, Homo sapiens, UniProt Q16512)", "remaining activity": "68.9%"}
{"target": "Tyrosine-protein kinase Fgr (FGR, Homo sapiens, UniProt P09769)", "remaining activity": "28.4%"}
{"target": "MAP/microtubule affinity-regulating kinase 3 (MARK3, Homo sapiens, UniProt P27448)", "remaining activity": "57.2%"}
{"target": "Megakaryocyte-associated tyrosine-protein kinase (MATK, Homo sapiens, UniProt P42679)", "remaining activity": "103%"}
{"target": "Tyrosine-protein kinase ITK/TSK (ITK, Homo sapiens, UniProt Q08881)", "remaining activity": "21.4%"}
{"target": "RAC-alpha serine/threonine-protein kinase (AKT1, Homo sapiens, UniProt P31749)", "remaining activity": "105%"}
{"target": "LIM domain kinase 1 (LIMK1, Homo sapiens, UniProt P53667)", "remaining activity": "74.1%"}
{"target": "Serine/threonine-protein kinase NLK (NLK, Homo sapiens, UniProt Q9UBE8)", "remaining activity": "90.4%"}
{"target": "Proto-oncogene tyrosine-protein kinase Src (SRC, Homo sapiens, UniProt P12931)", "remaining activity": "45.1%"}
{"target": "Insulin receptor (INSR, Homo sapiens, UniProt P06213)", "remaining activity": "87.4%"}
{"target": "Tyrosine-protein kinase Fer (FER, Homo sapiens, UniProt P16591)", "remaining activity": "20%"}
{"target": "cAMP-dependent protein kinase catalytic subunit PRKX (PRKX, Homo sapiens, UniProt P51817)", "remaining activity": "81%"}
{"data": "Set 2", "species": "mouse", "sample": "microsomes or S9", "tested at": "2 µM", "time": "0.5 h"}
{"Structure (SMILES)": "O=C(c1ccccc1)c1cccc2c1N(C(=O)c1ccccc1)CC21CCCCC1", "remaining compound [%]": 0.652}
{"Structure (SMILES)": "CC1(C)Cc2ccccc2C(c2sc3nc4c(cc3c2N)CCC4)=N1", "remaining compound [%]": 0.657}
{"Structure (SMILES)": "O=C(NNc1nc2ccccc2s1)c1ccccc1F", "remaining compound [%]": 0.499}
{"Structure (SMILES)": "Cc1nc(-c2ccccc2C)n(CC(O)c2ccccc2)n1 (stereo not drawn)", "remaining compound [%]": 0.698}
{"Structure (SMILES)": "CC(c1ccncn1)N(C)C(=O)c1ccc(OC2CCN(CCc3ccccc3)CC2)cc1 (stereo not drawn)", "remaining compound [%]": 35.4}
{"Structure (SMILES)": "c1cc(-c2ncnc3sccc23)c2cc[nH]c2n1", "remaining compound [%]": 6.29}
{"Structure (SMILES)": "O=C(Cc1noc2ccccc12)N1CCn2c1nc1ccccc12", "remaining compound [%]": 0.0408}
{"Structure (SMILES)": "C[C@H]1CN2C[C@H](O)CC2CN1Cc1cc2c(cc1Cl)OCO2 (stereo partly drawn)", "remaining compound [%]": 26.9}
{"Structure (SMILES)": "Cc1ccccc1-c1nc2ccccc2cc1Cn1nc(-c2cncnc2)c2cnc(N)nc21", "remaining compound [%]": "> 99"}
{"Structure (SMILES)": "c1ccc2c(c1)n(CCN1CCCC1)c1nc(-c3ccc4c(c3)OCO4)cn21", "remaining compound [%]": 33.5}
{"Structure (SMILES)": "CCCNc1nc(C)cc(=O)n1Cc1ccc(-c2ccccc2-c2nnn[nH]2)cc1", "remaining compound [%]": 0.396}
{"Structure (SMILES)": "CCN(CC)c1ccc(-c2nnc(-c3ccc(N(CC)CC)cc3)o2)cc1", "remaining compound [%]": 68.9}
{"Structure (SMILES)": "CCOC(=O)c1cccc(NC(=O)CC2C(=O)N(c3ccc(Cl)cc3)C(=O)N2C2CCCC2)c1 (stereo not drawn)", "remaining compound [%]": 4.59}
{"Structure (SMILES)": "Clc1ncccc1-c1nc2ccccc2c2c(Br)cnn12", "remaining compound [%]": 85}
{"Structure (SMILES)": "NC(=O)N1CCc2cc(NS(=O)(=O)c3cc(F)ccc3F)ccc21", "remaining compound [%]": 20.5}
{"Structure (SMILES)": "CCC(CNC(=O)CCOCC(C)C)NC(=O)CCOCC(C)C (stereo not drawn)", "remaining compound [%]": 8.82}
{"Structure (SMILES)": "Nc1cccc(CCC2CCc3ccccc3N2)c1 (stereo not drawn)", "remaining compound [%]": 8.94}
{"data": "Set 3", "cell line": "mouse MPNST tumor cells", "technique": "high-content nuclear imaging", "measured": "cell number", "tested at": "10 µM", "time": "12 h", "setting": "mean of 2 replicates", "baseline": "plate mean", "reading": "higher = more cells"}
{"SMILES": "CNCCC=C1c2ccccc2CCc2ccccc21", "nuclei count": "-6.94 z-score"}
{"SMILES": "COc1cc(C(C)=O)ccc1O", "nuclei count": "0.559 z-score"}
{"SMILES": "Nc1ccn([C@@H]2O[C@H](CO)[C@@H](O)[C@@H]2O)c(=O)n1", "nuclei count": "-4.04 z-score and -4.47 z-score"}
{"SMILES": "C[C@]12CCC(=O)C=C1CC[C@@H]1[C@@H]2[C@@H](O)C[C@@]2(C)[C@H]1CC[C@]2(O)C(=O)CO", "nuclei count": "3.86 z-score"}
{"SMILES": "CCOc1cccc(NC(=O)c2ccc(N3CCCC3)c(C(F)(F)F)c2)c1", "nuclei count": "4.61 z-score"}
{"SMILES": "C[C@H](NC(=O)CCc1ccc(F)c(F)c1)c1cncc(N2CCN(c3ccccn3)CC2)n1", "nuclei count": "0.33 z-score"}
{"SMILES": "CC1(C)S[C@@H]2[C@H](NC(=O)[C@H](NC(=O)N3CCNC3=O)c3ccccc3)C(=O)N2[C@H]1C(=O)O", "nuclei count": "0.765 z-score"}
{"SMILES": "CN(C)c1ccc(C(=O)NCCCCCCC(=O)NO)cc1", "nuclei count": "-0.418 z-score"}
{"SMILES": "COc1ncc(-c2ccc3c(Nc4cc(Oc5cc(F)cc(F)c5)cc(C(=O)O)c4)c(S(=O)(=O)NC4CC4)cnc3c2)c(OC)n1", "nuclei count": "1.3 z-score"}
{"SMILES": "Cc1[nH]c(/C=C2\\C(=O)Nc3ccccc32)c(C)c1CCC(=O)O", "nuclei count": "-0.675 z-score"}
{"SMILES": "CC(C)N(CCC(=O)c1ccc2ccccc2c1)Cc1ccccc1", "nuclei count": "-0.391 z-score"}
{"SMILES": "O=C(c1cc(S(=O)(=O)Nc2ccccc2F)c(F)cc1Cl)N1CCN2CCC[C@@H]2C1", "nuclei count": "1.94 z-score"}
{"SMILES": "Cc1cccc2c1NC(=O)C2(c1ccc(O)cc1)c1ccc(O)cc1", "nuclei count": "0.414 z-score"}
{"SMILES": "CCCSc1ccc2[nH]c(NC(=O)OC)nc2c1", "nuclei count": "-4.97 z-score and -0.934 z-score"}
{"SMILES": "CN(C/C=C/C#CC(C)(C)C)Cc1cccc2ccccc12", "nuclei count": "-0.301 z-score"}
{"SMILES": "CCOC(=O)N1CCC(Nc2c(NCCN3CCN(c4cccc(C(F)(F)F)c4)CC3)c(=O)c2=O)CC1", "nuclei count": "2.56 z-score"}
{"SMILES": "CC[N+](CC)(CC)CCOc1cccc(OCC[N+](CC)(CC)CC)c1OCC[N+](CC)(CC)CC", "nuclei count": "0.465 z-score"}
{"data": "Mixed results"}
{"SMILES": "CN(c1ccnc(CNc2nc(Nc3ccc4c(c3)CC(=O)N4)ncc2C(F)(F)F)n1)S(C)(=O)=O", "target": "Focal adhesion kinase 1 (PTK2, Homo sapiens, UniProt Q05397)", "observed": "target engagement", "technique": "NanoBRET", "sample": "live cells", "endpoint": "EC50", "result": "3.63 µM and 2.45 µM and 3.44 µM"}
{"note": "Excerpt of the above (set 2):"}
{"Structure (SMILES)": "Cc1ccccc1-c1nc2ccccc2cc1Cn1nc(-c2cncnc2)c2cnc(N)nc21", "remaining compound [%]": "> 99"}
{"Structure (SMILES)": "c1ccc2c(c1)n(CCN1CCCC1)c1nc(-c3ccc4c(c3)OCO4)cn21", "remaining compound [%]": 33.5}
{"Structure (SMILES)": "CCCNc1nc(C)cc(=O)n1Cc1ccc(-c2ccccc2-c2nnn[nH]2)cc1", "remaining compound [%]": 0.396}
{"Structure (SMILES)": "CCN(CC)c1ccc(-c2nnc(-c3ccc(N(CC)CC)cc3)o2)cc1", "remaining compound [%]": 68.9}
{"Structure (SMILES)": "CCOC(=O)c1cccc(NC(=O)CC2C(=O)N(c3ccc(Cl)cc3)C(=O)N2C2CCCC2)c1 (stereo not drawn)", "remaining compound [%]": 4.59}
